Assay results from different studies.
Each numbered part is a random draw from the data of one study; scales do not carry over between parts. Substitutions count along the parent as printed.

Block 1
Target: TAR DNA-binding protein 43, full length, His tag (TARDBP, Homo sapiens, UniProt Q13148, residues 1-414)
Method: RNA Bind-n-Seq
Molecule type: RNA
Sample: in vitro
Concentration: 20 nM
Setting: 6-mer, flanks averaged, single round
Added: 150 mM KCl
Baseline: input library
Reading: higher = stronger binding
For `UAAUUC`, “6-mer enrichment (R)” read 0.595.
`UAAUUG`: “6-mer enrichment (R)” 0.672.
For `CAUCGA`, “6-mer enrichment (R)” read 0.611.
`GAGAUA` — result for “6-mer enrichment (R)”: 0.856.
For `CAUUUC`, “6-mer enrichment (R)” read 0.568.
Under “6-mer enrichment (R)”, `CUGCUG` is recorded as 0.813.
`CUCACC`: “6-mer enrichment (R)” 0.602.
`AAAGGA` — result for “6-mer enrichment (R)”: 0.828.

Block 2
Target: CCND2, cyclin fold, Cln2 fusion (human)
Method: yeast growth competition, sequencing
Sample: yeast
Setting: weak parent motif
Baseline: not given
Reading: higher = stronger binding
Parent: viral docking peptide; TSVRRALFTGGSD
`TSVRRALFTGGTD [S12T]` — result for “normalised enrichment score”: -0.0256.
`TQVRRALFTGGSD [S2Q]`: “normalised enrichment score” 0.124.
`TSVRRALFTGMSD [G11M]` — result for “normalised enrichment score”: -0.13.
For `TYVRRALFTGGSD [S2Y]`, “normalised enrichment score” read 0.0997.
For `TFVRRALFTGGSD [S2F]`, “normalised enrichment score” read 0.292.
`TSDRRALFTGGSD [V3D]` — result for “normalised enrichment score”: 0.107.
Under “normalised enrichment score”, `TSVRRALFTGKSD [G11K]` is recorded as -0.117.
For `TSVRRALFTWGSD [G10W]`, “normalised enrichment score” read 0.0396.
`TSVRRALFTGGQD [S12Q]`: “normalised enrichment score” 0.197.
`TVVRRALFTGGSD [S2V]` — result for “normalised enrichment score”: -0.14.
`TSVRMALFTGGSD [R5M]`: “normalised enrichment score” 0.239.
`TSVRRALFTGGLD [S12L]`: “normalised enrichment score” -0.205.
`TSVRRALDTGGSD [F8D]`: “normalised enrichment score” -0.0642.
`TSVRRALFTGPSD [G11P]`: “normalised enrichment score” 0.3.
`TSVRRALFTGSSD [G11S]` — result for “normalised enrichment score”: 0.073.

Block 3
Target: Interferon regulatory factor 7, full length, phosphomimetic (IRF7, Homo sapiens, UniProt Q92985, residues 1-503, S101K/S471D/S472D/S475D/S476D/S477D/S483D/S484D/S487D)
Chain of UniProt Q92985 (whole entry, unmodified, looked up): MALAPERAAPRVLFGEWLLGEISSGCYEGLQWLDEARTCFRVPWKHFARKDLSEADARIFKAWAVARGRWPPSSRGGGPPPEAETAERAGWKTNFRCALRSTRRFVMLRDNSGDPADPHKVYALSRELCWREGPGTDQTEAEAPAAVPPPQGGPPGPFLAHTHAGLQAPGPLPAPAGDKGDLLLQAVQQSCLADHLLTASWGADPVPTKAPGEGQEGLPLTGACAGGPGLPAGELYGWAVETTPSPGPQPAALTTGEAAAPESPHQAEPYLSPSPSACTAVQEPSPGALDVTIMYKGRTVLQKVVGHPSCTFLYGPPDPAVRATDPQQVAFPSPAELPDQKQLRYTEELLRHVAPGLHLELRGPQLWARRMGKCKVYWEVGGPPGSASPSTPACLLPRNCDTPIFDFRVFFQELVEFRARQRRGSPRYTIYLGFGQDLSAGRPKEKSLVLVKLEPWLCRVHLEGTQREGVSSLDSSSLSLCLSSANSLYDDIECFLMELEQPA
Method: protein-binding microarray
Molecule type: double-stranded DNA, one strand shown
Sample: in vitro
Concentration: 250 nM
Setting: 60-bp whole probe
Added: salmon DNA 0.4 mg/ml
Baseline: random background probes
Reading: higher = stronger binding
Constant ends, left off below: GCCTAGCAC … GTCTTGATTCGCTTGACGCTGCTG
With `TTAGGTTTCGGTCTCGGTAAGTGCTAG` the log fluorescence was 8.6 z-score.
`CTGCTCTGTGCACAGAAGACGTGCTAG` gave a log fluorescence of -0.0398 z-score.
`GCCTACTCGCTCGTCCGGAGGTGCTAG` gave a log fluorescence of 0.493 z-score.
`TTTTTTTTGGAATGTCTTCCCGTGCTA` has a log fluorescence of 0.447 z-score.
With `TCAAATTTTTGCATCGTACTGTGCTAG` the log fluorescence was -0.15 z-score.
For `TCATCTTCAGGTTCTCCCACTGTGCTA`, the log fluorescence was 0.301 z-score.
For `TTAGAACTGGGGCTTCGATTAGTGCTA`, the log fluorescence was -0.15 z-score.
`GACAGTTTCGGTTCCGGGACGTGCTAG` has a log fluorescence of 11.6 z-score.

Block 4
Target: RNA binding protein fox-1 homolog 2, RRM domain, GST-SBP tag (RBFOX2, Homo sapiens, UniProt O43251-10, residues 100-194)
Method: RNA Bind-n-Seq
Molecule type: RNA
Sample: in vitro
Concentration: 365 nM
Setting: natural RNA segment, single round, ends assumed
Baseline: no-protein control
Reading: higher = stronger binding
Construct (chain): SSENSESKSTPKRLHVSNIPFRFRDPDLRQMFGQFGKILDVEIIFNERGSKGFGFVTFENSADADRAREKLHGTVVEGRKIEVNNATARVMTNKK
`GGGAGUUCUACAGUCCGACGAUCUCAAUCAGUAUUUAUGUUGAAAUUUCUAACAUUAAAUCUAGUCUCUAUCCUGUUAAUUUAAUUUUUAAAUGCUUUAUCCAUUUGUGCAAAGGUAAACGCAGAUUGUAUCUUGGAAUUCUCGGGUGCCAA` — result for “RBNS enrichment (R)”: 0.934.
For `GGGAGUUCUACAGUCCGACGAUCUGGUAGGAUAAAGCCAUUGUCCUUUAAUACCAUAGCAAAUAGAAGCAAUUUUUAAUGAGGUUACUGAAUUGUUUAGUAUUCCUAAUAUGGCAUCCAGGUCAUCUUUUCUUUGGAAUUCUCGGGUGCCAA`, “RBNS enrichment (R)” read 0.246.
`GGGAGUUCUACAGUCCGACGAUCGCAUUCCAGGUAACAGGUGUGUAUGUAAAGUUAAAAAUAGGCUUUUUAGGAACUCACUCUUUAGAUAUUUACAUCCAGCUUCUCAUGUUAAAUAUUUGUCCUUAAAGGGUUGGAAUUCUCGGGUGCCAA` — result for “RBNS enrichment (R)”: 0.914.
For `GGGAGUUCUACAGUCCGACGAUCGGCCCAGCCUCCUGCUCGCACCUCCUGCCCUACCUAGGAAGCCCUCCAGAGGGCCAGCCUCUGCUGAGCGGGGGAAGUGGGCACUGACUACAGCAGGUGGAGAUGGUGCAUGGAAUUCUCGGGUGCCAA`, “RBNS enrichment (R)” read 0.603.
`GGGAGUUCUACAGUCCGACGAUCUGCCUCGGCCUUUUGUCCAGCUCAGCCUGGGAUGUCUAUAGGGUUGAGGGUUUUAGACAAUCUCUAGGAAAGGGAUACAAAACAGAUCCGAUGGAAGAAACCUACUUCCCUGGAAUUCUCGGGUGCCAA`: “RBNS enrichment (R)” 0.315.
`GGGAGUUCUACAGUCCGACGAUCCCCCUUCUCACCUCCUCAUUCUCUCUGGCUCUUUCUGUCUUCCUCUUCUCACCCUCCUCCCUCCCCUUAGCCAUCACUUCUGGGAAGUAAAGAACUUGACUUAGUGCCGGUGGAAUUCUCGGGUGCCAA` — result for “RBNS enrichment (R)”: 0.703.
Under “RBNS enrichment (R)”, `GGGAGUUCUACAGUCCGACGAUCUGUGUGGGUUGCUCUGUUUUCUUACUGGAAUGCCUUCUCCGGAACUGUUGCGGUUUCAUUCUCUGUCAUCAGGGCUAUUUUCUACAGACCUUGAGCCUCAAAACCUGUUCUGGAAUUCUCGGGUGCCAA` is recorded as 0.546.
For `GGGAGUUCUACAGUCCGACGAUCUUUCUGAUUUAAAUUAGCUCCUUGUGUCCUUGCUUUAUCUUUGGGGCAUCUUUAGUUCCAAGAACUGGAAGCCAGAGCUGCAGGCUCCUCCCACCUCUCUCCAGGCUGGUUGGAAUUCUCGGGUGCCAA`, “RBNS enrichment (R)” read 1.37.

Excerpt of the above (block 2):
For `TYVRRALFTGGSD [S2Y]`, “normalised enrichment score” read 0.0997.
For `TFVRRALFTGGSD [S2F]`, “normalised enrichment score” read 0.292.
`TSDRRALFTGGSD [V3D]` — result for “normalised enrichment score”: 0.107.
